Experimental data pooled from the literature.
A part holds a random share of what one study measured.
UniProt P63146, sequence (whole entry, looked up): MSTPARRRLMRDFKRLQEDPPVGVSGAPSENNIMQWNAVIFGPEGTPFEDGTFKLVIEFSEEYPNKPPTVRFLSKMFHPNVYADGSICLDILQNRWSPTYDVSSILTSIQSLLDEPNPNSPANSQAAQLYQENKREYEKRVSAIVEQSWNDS
UniProt Q8WTQ7, sequence (whole entry, looked up): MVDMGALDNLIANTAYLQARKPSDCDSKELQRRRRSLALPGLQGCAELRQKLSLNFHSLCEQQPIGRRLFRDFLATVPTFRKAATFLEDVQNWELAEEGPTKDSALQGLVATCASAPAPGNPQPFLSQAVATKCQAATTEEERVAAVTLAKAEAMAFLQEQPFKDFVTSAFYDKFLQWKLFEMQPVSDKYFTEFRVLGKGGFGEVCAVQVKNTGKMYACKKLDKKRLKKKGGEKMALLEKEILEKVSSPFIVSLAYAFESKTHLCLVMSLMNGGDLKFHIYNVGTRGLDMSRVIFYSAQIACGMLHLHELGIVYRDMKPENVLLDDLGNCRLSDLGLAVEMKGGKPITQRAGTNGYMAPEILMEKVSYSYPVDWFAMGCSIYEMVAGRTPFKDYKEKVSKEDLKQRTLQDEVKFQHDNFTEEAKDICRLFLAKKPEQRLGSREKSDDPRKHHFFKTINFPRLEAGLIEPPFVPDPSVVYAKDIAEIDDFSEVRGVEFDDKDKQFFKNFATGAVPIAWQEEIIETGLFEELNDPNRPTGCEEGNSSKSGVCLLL
UniProt Q13976, sequence (whole entry, looked up): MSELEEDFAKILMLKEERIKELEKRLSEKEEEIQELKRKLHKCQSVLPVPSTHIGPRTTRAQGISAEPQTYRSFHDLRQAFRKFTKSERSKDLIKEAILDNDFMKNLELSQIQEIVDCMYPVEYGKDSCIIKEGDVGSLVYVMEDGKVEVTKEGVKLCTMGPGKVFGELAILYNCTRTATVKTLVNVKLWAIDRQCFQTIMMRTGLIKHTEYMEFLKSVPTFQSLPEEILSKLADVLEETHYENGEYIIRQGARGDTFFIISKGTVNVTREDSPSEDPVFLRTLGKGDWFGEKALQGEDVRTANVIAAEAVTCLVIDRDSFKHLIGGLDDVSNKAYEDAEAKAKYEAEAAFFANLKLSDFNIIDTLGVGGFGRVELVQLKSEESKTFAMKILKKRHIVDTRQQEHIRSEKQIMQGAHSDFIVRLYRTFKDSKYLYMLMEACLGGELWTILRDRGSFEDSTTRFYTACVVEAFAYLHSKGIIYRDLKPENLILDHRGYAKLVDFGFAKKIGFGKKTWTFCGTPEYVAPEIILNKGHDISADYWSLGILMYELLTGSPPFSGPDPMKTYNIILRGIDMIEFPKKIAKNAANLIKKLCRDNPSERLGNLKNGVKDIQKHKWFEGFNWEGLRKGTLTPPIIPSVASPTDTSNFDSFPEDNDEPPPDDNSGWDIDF
UniProt Q9Y385, sequence (whole entry, looked up): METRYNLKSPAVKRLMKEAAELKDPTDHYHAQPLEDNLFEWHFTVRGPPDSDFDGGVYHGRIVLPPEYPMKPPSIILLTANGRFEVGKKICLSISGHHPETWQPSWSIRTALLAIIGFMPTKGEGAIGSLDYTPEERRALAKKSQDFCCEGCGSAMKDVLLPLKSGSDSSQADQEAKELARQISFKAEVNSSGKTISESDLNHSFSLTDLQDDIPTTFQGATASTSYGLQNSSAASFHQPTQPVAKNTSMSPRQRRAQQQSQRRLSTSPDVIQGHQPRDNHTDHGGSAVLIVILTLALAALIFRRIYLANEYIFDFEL
UniProt Q9UHD2, sequence (whole entry, looked up): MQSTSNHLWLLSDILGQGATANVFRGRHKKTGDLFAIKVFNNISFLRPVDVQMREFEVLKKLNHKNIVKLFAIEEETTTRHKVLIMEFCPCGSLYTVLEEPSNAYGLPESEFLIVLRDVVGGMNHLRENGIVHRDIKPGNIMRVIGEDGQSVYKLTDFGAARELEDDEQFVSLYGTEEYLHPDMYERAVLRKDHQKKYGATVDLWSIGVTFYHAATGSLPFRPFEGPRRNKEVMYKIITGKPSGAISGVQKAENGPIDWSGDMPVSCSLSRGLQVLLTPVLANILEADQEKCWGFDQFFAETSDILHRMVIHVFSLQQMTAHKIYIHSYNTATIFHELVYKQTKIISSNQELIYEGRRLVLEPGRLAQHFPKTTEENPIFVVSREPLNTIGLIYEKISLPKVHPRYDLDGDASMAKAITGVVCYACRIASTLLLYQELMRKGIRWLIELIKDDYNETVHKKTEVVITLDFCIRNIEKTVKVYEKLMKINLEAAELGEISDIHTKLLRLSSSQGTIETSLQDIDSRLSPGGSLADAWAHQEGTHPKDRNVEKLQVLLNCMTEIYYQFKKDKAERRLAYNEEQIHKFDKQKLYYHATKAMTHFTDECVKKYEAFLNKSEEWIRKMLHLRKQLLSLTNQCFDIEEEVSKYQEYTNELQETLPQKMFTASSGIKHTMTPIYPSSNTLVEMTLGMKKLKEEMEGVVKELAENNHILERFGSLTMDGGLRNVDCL
UniProt O75116, sequence (whole entry, looked up): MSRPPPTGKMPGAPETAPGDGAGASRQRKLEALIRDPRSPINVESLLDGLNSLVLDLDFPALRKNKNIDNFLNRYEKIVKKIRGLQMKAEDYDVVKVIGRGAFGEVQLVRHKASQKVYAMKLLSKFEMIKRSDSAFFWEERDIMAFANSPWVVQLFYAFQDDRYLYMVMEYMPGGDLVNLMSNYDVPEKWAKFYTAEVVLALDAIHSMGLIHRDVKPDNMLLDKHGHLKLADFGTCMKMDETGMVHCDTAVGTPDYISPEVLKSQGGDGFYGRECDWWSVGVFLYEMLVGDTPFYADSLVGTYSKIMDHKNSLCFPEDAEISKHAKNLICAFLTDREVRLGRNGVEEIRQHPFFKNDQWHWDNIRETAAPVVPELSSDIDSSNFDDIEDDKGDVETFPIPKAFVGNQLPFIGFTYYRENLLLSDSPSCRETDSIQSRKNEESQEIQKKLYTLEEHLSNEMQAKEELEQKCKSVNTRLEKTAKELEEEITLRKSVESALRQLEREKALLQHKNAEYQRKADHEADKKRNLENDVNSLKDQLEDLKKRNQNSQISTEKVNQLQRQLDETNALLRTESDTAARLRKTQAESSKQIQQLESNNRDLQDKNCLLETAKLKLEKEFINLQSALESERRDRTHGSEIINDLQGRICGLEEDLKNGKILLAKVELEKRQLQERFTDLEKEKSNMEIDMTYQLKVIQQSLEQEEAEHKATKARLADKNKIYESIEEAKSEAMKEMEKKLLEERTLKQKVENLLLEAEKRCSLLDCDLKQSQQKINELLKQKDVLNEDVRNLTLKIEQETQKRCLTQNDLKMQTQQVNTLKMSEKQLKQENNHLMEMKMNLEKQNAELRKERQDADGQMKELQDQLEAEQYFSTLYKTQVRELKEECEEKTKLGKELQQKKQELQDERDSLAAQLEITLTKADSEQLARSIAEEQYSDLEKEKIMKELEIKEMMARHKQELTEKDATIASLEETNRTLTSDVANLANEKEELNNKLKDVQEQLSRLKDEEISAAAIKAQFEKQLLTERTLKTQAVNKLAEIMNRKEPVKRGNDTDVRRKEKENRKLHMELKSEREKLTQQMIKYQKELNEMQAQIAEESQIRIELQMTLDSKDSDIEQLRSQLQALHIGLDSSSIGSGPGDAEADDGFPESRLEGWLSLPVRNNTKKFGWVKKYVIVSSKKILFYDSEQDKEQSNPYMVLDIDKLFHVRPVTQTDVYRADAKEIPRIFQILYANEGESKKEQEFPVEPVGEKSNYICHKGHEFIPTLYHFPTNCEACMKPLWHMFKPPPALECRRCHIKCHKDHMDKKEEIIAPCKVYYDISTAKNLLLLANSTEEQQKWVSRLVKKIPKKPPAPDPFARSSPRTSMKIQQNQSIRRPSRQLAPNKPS
UniProt Q6PHR2, sequence (whole entry, looked up): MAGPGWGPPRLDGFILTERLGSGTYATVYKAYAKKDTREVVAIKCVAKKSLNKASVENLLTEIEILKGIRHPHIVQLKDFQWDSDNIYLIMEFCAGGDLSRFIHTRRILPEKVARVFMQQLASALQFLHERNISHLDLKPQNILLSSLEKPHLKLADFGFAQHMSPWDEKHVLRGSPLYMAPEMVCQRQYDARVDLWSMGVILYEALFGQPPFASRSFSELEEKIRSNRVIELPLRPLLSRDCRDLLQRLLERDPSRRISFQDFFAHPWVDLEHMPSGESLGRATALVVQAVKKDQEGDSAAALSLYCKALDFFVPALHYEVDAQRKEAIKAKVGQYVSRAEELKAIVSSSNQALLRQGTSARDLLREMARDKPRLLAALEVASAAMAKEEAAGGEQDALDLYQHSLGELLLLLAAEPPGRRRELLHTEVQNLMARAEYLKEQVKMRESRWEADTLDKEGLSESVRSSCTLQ
UniProt O94921, sequence (whole entry, looked up): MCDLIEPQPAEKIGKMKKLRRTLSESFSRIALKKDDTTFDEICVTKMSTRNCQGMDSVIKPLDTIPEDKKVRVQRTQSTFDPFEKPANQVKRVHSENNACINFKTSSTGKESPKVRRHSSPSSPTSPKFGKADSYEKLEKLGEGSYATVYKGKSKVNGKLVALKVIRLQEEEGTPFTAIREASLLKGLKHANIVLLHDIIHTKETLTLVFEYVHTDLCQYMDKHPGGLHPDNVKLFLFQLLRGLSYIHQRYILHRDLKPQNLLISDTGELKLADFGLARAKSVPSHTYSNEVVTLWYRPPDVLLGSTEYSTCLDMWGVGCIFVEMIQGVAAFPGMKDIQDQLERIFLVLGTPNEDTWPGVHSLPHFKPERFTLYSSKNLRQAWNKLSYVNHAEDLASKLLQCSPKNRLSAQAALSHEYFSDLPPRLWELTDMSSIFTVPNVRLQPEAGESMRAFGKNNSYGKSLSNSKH
UniProt Q712K3, sequence (whole entry, looked up): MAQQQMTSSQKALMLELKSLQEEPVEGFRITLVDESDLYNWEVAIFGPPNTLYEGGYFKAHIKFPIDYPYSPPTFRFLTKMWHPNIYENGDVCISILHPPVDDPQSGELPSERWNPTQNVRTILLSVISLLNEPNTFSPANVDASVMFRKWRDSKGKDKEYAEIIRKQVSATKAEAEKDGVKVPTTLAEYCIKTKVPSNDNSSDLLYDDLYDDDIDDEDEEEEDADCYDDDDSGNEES

Set 1 — method: protein-binding microarray; form: hairpin DNA; medium: in vitro; tested at: not given; relative to: not given; reading: higher = stronger binding
Target: Cellular tumor antigen p53, full length (TP53, Homo sapiens, UniProt P04637, residues 1-393)
Setting: whole hairpin DNA, median over replicate spots
For `CGGACATCGCCGGGCATGTCTCCTGACATGCCCGGCGATGTCCGACACTC (5mC at 8)`, the median fluorescence was 12000 a.u.
The median fluorescence of `CGGACATGCGCGGGCATGTCTCCTGACATGCCCGCGCATGTCCGACACTC` is reported as 15100 a.u.
`CCACACGTGGTGGCATGCCTTCCTAGGCATGCCACCACGTGTGGACACTC` gave a median fluorescence of 7790 a.u.
`CGGACACGCCCGGGCATGTCTCCTGACATGCCCGGGCGTGTCCGACACTC (5mC at 37)` gave a median fluorescence of 13900 a.u.
For `CCACACGTGCGGGCATGCCTTCCTAGGCATGCCCGCACGTGTGGACACTC`, the median fluorescence was 10900 a.u.
The median fluorescence of `CGGAGATGCCCGGGCATGTCTCCTGACATGCCCGGGCATCTCCGACACTC (5mC at 40)` is reported as 13400 a.u.
With `CGGACATGCCCGCGCATGTCTCCTGACATGCGCGGGCATGTCCGACACTC` the median fluorescence was 12500 a.u.
`CGGACATGCCCGAGCATGTCTCCTGACATGCTCGGGCATGTCCGACACTC` has a median fluorescence of 16000 a.u.

Set 2 — method: yeast two-hybrid; medium: yeast; setting: mostly zero background; relative to: not given; reading: higher = stronger interaction
Sequence: KTLSRFGIQPCSICLGDAKDPVCLPCDHVHCLRCLRAWFASEQMICPYCLTALPDEFSPA (RNF213 RING domain (UniProt Q63HN8))
It gave 0 for “lacZ reporter activity” (UBE2Z UBC core domain (UniProt Q9H832)).
It gave 0 for “lacZ reporter activity” (UBE2S UBC core domain (UniProt Q16763)).
For UBE2R2 UBC core domain (UniProt Q712K3): “lacZ reporter activity” read 0.
For UBE2J1 UBC core domain (UniProt Q9Y385): “lacZ reporter activity” read 0.
For UBE2Q1 UBC core domain (UniProt Q7Z7E8): “lacZ reporter activity” read 0.
The “lacZ reporter activity” was 0 (UBE2G1 UBC core domain (UniProt P62253)).
UBE2T UBC core domain (UniProt Q9NPD8) — “lacZ reporter activity”: 0.
For UBE2B UBC core domain (UniProt P63146): “lacZ reporter activity” read 0.

Set 3 — effect on: cell-free assay; method: competition with immobilised ligand; tested at: 1 µM
Structure (SMILES): CCC(=O)N[C@@H]1CC[C@H](C(=O)N(C)c2ccc(-c3nc4ccccc4o3)cc2)C1
It gave 100% for remaining binding (CSNK1G3 (Homo sapiens, UniProt Q9Y6M4)).
For BRAF (Homo sapiens, UniProt P15056, V600E): remaining binding read 100%.
PI4KB (Homo sapiens, UniProt Q9UBF8) — remaining binding: 100%.
For FGFR4 (Homo sapiens, UniProt P22455): remaining binding read 89%.
For CAMK1G (Homo sapiens, UniProt Q96NX5): remaining binding read 100%.
DCLK3 (Homo sapiens, UniProt Q9C098) — remaining binding: 100%.
It gave 100% for remaining binding (MST1R (Homo sapiens, UniProt Q04912)).
PIK3C3 (Homo sapiens, UniProt Q8NEB9) — remaining binding: 100%.
It gave 100% for remaining binding (MAP2K1 (Homo sapiens, UniProt Q02750)).
It gave 93% for remaining binding (Insulin receptor (INSR, Homo sapiens, UniProt P06213)).
For MYLK (Homo sapiens, UniProt Q15746): remaining binding read 62%.
The remaining binding was 93% (PRKCE (Homo sapiens, UniProt Q02156)).
TTK (Homo sapiens, UniProt P33981) — remaining binding: 100%.
For CDK14 (Homo sapiens, UniProt O94921): remaining binding read 100%.
PRKG1 (Homo sapiens, UniProt Q13976) — remaining binding: 100%.
It gave 100% for remaining binding (ROCK2 (Homo sapiens, UniProt O75116)).
For Tyrosine-protein kinase ABL1, non-phosphorylated (ABL1, Homo sapiens, UniProt P00519, F317L): remaining binding read 92%.
The remaining binding was 100% (CLK3 (Homo sapiens, UniProt P49761)).
It gave 100% for remaining binding (NLK (Homo sapiens, UniProt Q9UBE8)).
The remaining binding was 100% (PLK2 (Homo sapiens, UniProt Q9NYY3)).

Set 4 — effect on: enzyme activity; action: inhibitor; tested at: 0.5 µM; relative to: control
SMILES: CCCC(=O)Oc1ccc2[nH]c(C(=O)c3cc4ccccc4[nH]3)cc2c1
For MAP3K5 (Homo sapiens, UniProt Q99683): remaining activity read 103%.
It gave 96.7% for remaining activity (MERTK (Homo sapiens, UniProt Q12866)).
For CSNK1G2 (Homo sapiens, UniProt P78368): remaining activity read 95.5%.
It gave 105% for remaining activity (GRK7 (Homo sapiens, UniProt Q8WTQ7)).
It gave 100% for remaining activity (TEK (Homo sapiens, UniProt Q02763)).
The remaining activity was 110% (TAOK2 (Homo sapiens, UniProt Q9UL54)).
It gave 92.4% for remaining activity (MAPKAPK2 (Homo sapiens, UniProt P49137)).
WEE1 (Homo sapiens, UniProt P30291) — remaining activity: 85.8%.
It gave 95.2% for remaining activity (FGFR3 (Homo sapiens, UniProt P22607)).
It gave 85% for remaining activity (RPS6KA2 (Homo sapiens, UniProt Q15349)).
The remaining activity was 98.9% (ACVR1B (Homo sapiens, UniProt P36896)).
It gave 119% for remaining activity (TBK1 (Homo sapiens, UniProt Q9UHD2)).
ULK3 (Homo sapiens, UniProt Q6PHR2) — remaining activity: 89.5%.
The remaining activity was 94.3% (NEK1 (Homo sapiens, UniProt Q96PY6)).

Excerpt of the above (set 2):
For UBE2R2 UBC core domain (UniProt Q712K3): “lacZ reporter activity” read 0.
For UBE2J1 UBC core domain (UniProt Q9Y385): “lacZ reporter activity” read 0.
For UBE2Q1 UBC core domain (UniProt Q7Z7E8): “lacZ reporter activity” read 0.
The “lacZ reporter activity” was 0 (UBE2G1 UBC core domain (UniProt P62253)).
UBE2T UBC core domain (UniProt Q9NPD8) — “lacZ reporter activity”: 0.
For UBE2B UBC core domain (UniProt P63146): “lacZ reporter activity” read 0.
